Measured values gathered from unrelated publications.
Each line is one published result; not all experiments were run side by side.

`NNC(=O)c1ccncc1.O=C(CN1C(=O)CSC1=O)Oc1ccc(C=NNC(=O)c2ccncc2)cc1` gave an MIC of 0.0156 µg/mL (Mycobacterium tuberculosis; growth in combination; H37Rv; together with: reference drug at 1/2 MIC).
`CN[C@@H]1[C@H](O)[C@H](NC)[C@H]2O[C@]3(O)[C@H](O[C@@H]2[C@H]1O)O[C@H](C)C[C@H]3NC(=O)Cc1cscn1` gave an MIC of greater than 200 µg/mL (Proteus mirabilis; microbial growth, broth dilution; ATCC25933).
For `c1ccc2c(c1)nc(CNCC13CC4CC(CC(C4)C1)C3)n2CC1CCCCC1`, the MIC was greater than 128 µg/mL (Enterobacter aerogenes; ATCC 35029).
`CN[C@@H]1[C@H](O)[C@H](NC)[C@H]2O[C@]3(O)[C@H](O[C@@H]2[C@H]1O)O[C@H](C)C[C@H]3NC(=O)Cc1ccccn1` gave an MIC of 1.6 to 3.1 µg/mL (Mycobacterium marinum; microbial growth; ATCC927).
The MIC of `CC[C@H](C)[C@H](NC(=O)CNC(=O)[C@H](CC(=O)O)NC(=O)[C@H](CCCNC(=N)N)NC(=O)[C@@H](NC(=O)[C@H](Cc1c[nH]cn1)NC(=O)[C@H](CCC(N)=O)NC(=O)CNC(=O)[C@@H](NC(=O)[C@H](CCCNC(=N)N)NC(=O)[C@H](CCC(=O)O)NC(=O)[C@@H](NC(=O)[C@H](CCCCN)NC(=O)[C@H](CCCCN)NC(=O)[C@H](Cc1ccccc1)NC(=O)[C@@H](NC(=O)[C@H](CCCCN)NC(=O)[C@H](Cc1c[nH]c2ccccc12)NC(=O)[C@@H](N)CCCCN)[C@@H](C)CC)[C@@H](C)CC)C(C)C)C(C)C)C(=O)N[C@H](C(=O)N[C@@H](CCCCN)C(=O)N[C@@H](C)C(=O)NCC(=O)N[C@@H](CO)C(=O)N[C@@H](C)C(=O)N[C@H](C(=O)N[C@@H](CCC(N)=O)C(=O)N[C@H](C(=O)N[C@H](C(=O)NCC(=O)N[C@@H](CCC(N)=O)C(=O)N[C@@H](C)C(=O)N[C@@H](C)C(=O)N[C@@H](C)C(=O)N[C@H](C(=O)N[C@@H](C)C(=O)N[C@@H](CCCCN)C(N)=O)[C@@H](C)CC)C(C)C)C(C)C)C(C)C)[C@@H](C)CC` is reported as no more than 0.062 µM (Cryptococcus neoformans; resazurin broth microdilution; 36 h, 35 °C).
For `CCc1ccn2c(C(=O)NCc3ccc(C)cc3)c(C)nc2c1`, the MIC was greater than 50 µM (Mycobacterium marinum; microbial growth; 5 days).
For `CCOc1cc(C=NNC(=O)c2cccnc2)ccc1OC(=O)CN1C(=O)CSC1=O.NNC(=O)c1ccncc1`, the MIC was 0.0312 µg/mL (Mycobacterium tuberculosis; growth in combination; H37Rv; together with: reference drug at 1/2 MIC).
For `Cc1ccc2nc(C)c(C(=O)NCc3ccccc3)n2c1`, the MIC was greater than 128 µM (Mycobacterium marinum; microbial growth; 5 days).
For `CCC(CO)NCCNC(CC)CO.COc1cc(C=NNC(=O)c2ccncc2)ccc1OC(=O)CN1C(=O)CSC1=O`, the MIC was 0.5 µg/mL (Mycobacterium tuberculosis; growth in combination; 192; together with: reference drug at 1/2 MIC).
With `CN[C@@H]1[C@H](O)[C@H](NC)[C@H]2O[C@]3(O)[C@H](O[C@@H]2[C@H]1O)O[C@H](C)C[C@H]3NC(=O)Cc1ccc(F)cn1` the MIC was 1.6 to 3.1 µg/mL (Mycobacterium marinum; microbial growth; ATCC927).
`CCOc1cc(/C=N/NC(=O)c2ccccn2)ccc1OC(=O)CN1C(=O)CSC1=O` gave an MIC of 0.565 µM (Mycobacterium tuberculosis; Alamar blue; 192).
The MIC of `CC[C@H](C)[C@H](NC(=O)[C@H](CCCCN)NC(=O)[C@@H](NC(=O)[C@@H](NC(=O)[C@H](CC(C)C)NC(=O)[C@H](CCCNC(=N)N)NC(=O)[C@@H](NC(=O)[C@H](CC(C)C)NC(=O)[C@H](CCCNC(=N)N)NC(=O)CNC(=O)[C@H](Cc1ccccc1)NC(=O)[C@@H](N)CCCNC(=N)N)[C@@H](C)CC)[C@@H](C)CC)C(C)C)C(=O)N[C@@H](C)C(=O)N[C@@H](CCCNC(=N)N)C(=O)N[C@@H](CCCNC(=N)N)C(=O)N[C@@H](C)C(=O)N[C@@H](Cc1c[nH]cn1)C(=O)N[C@@H](CCCNC(=N)N)C(=O)N[C@@H](C)C(=O)N[C@@H](CCCNC(=N)N)C(=O)N[C@@H](CO)C(=O)N[C@@H](C)C(=O)N[C@H](C(=O)N[C@@H](CCCCN)C(=O)N[C@@H](C)C(=O)N[C@@H](C)C(=O)N[C@@H](CO)C(=O)N[C@@H](CC(N)=O)C(=O)N[C@H](C(=O)N[C@@H](C)C(=O)N[C@@H](C)C(=O)N[C@@H](CC(C)C)C(=O)N[C@@H](C)C(=O)N[C@@H](Cc1c[nH]cn1)C(=O)NCC(=O)N[C@@H](C)C(=O)O)C(C)C)C(C)C` is reported as no more than 0.064 µM (Cryptococcus neoformans; resazurin broth microdilution; 36 h, 35 °C).
`Cc1ccc2nc(C)c(CC(=O)NCc3ccc(N(C)C)cc3)n2c1` has an MIC of greater than 50 µM (Mycobacterium marinum; microbial growth; 5 days).
With `O=C(CN1C(=O)CSC1=O)Oc1ccc(/C=N/NC(=O)c2ccccn2)cc1Br` the MIC was 4.19 µM (Mycobacterium tuberculosis; Alamar blue; 192).
The MIC of `CN[C@@H]1[C@H](O)[C@H](NC)[C@H]2O[C@]3(O)[C@H](O[C@@H]2[C@H]1O)O[C@H](C)C[C@H]3NC(=O)CNC(C)(C)C` is reported as greater than 200 µg/mL (Proteus mirabilis; microbial growth, broth dilution; ATCC25933).
`Cc1ccc2nc(C)c(C(=O)C(=O)NCc3ccccc3)n2c1` has an MIC of greater than 128 µM (Mycobacterium marinum; microbial growth; 5 days).
With `CN[C@@H]1[C@H](O)[C@H](NC)[C@H]2O[C@]3(O)[C@H](O[C@@H]2[C@H]1O)O[C@H](C)C[C@H]3NC(=O)Cc1cc(Cl)ccn1` the MIC was 1.6 to 3.1 µg/mL (Mycobacterium marinum; microbial growth; ATCC927).
For `Nc1ccccc1C(=O)OCC#CCOC(=O)c1ccccc1N`, the MIC was greater than 128 µg/mL (Saccharomyces cerevisiae; S288c).
For `CCOc1cc(C=NNC(=S)Nc2cccc(Cl)c2)ccc1OC(=O)CN1C(=O)CSC1=O.NNC(=O)c1ccncc1`, the MIC was 0.007 µg/mL (Mycobacterium tuberculosis; growth in combination; H37Rv; together with: reference drug at 1/2 MIC).
For `CN[C@@H]1[C@H](O)[C@H](NC)[C@H]2O[C@]3(O)[C@H](O[C@@H]2[C@H]1O)O[C@H](C)C[C@H]3NC(=O)Cc1ccc(Cl)cn1`, the MIC was greater than 200 µg/mL (Proteus mirabilis; microbial growth, broth dilution; ATCC25933).

Some of these lines once more:
For `c1ccc2c(c1)nc(CNCC13CC4CC(CC(C4)C1)C3)n2CC1CCCCC1`, the MIC was greater than 128 µg/mL (Enterobacter aerogenes; ATCC 35029).
For `CN[C@@H]1[C@H](O)[C@H](NC)[C@H]2O[C@]3(O)[C@H](O[C@@H]2[C@H]1O)O[C@H](C)C[C@H]3NC(=O)Cc1ccc(Cl)cn1`, the MIC was greater than 200 µg/mL (Proteus mirabilis; microbial growth, broth dilution; ATCC25933).
